Results collected from several papers.
Numbered parts are unrelated; each lists some results of a single study.

Sample 1 — method: RNA Bind-n-Seq; molecule type: RNA; sample: in vitro; concentration: 365 nM; baseline: no-protein control; reading: higher = stronger binding; endpoint: RBNS enrichment (R)
Target: RNA binding protein fox-1 homolog 2, RRM domain, GST-SBP tag (RBFOX2, Homo sapiens, UniProt O43251-10, residues 100-194)
Setting: natural RNA segment, single round, ends assumed
All sequences stand within: GGGAGUUCUACAGUCCGACGAUC … UGGAAUUCUCGGGUGCCAA
Residues (chain): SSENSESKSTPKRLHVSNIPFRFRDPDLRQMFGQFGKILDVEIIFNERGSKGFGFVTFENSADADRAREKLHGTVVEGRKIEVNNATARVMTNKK
AGGAAAGGUGCUACUGUGUGGGUCUGGAACCUGUGAAUGAAUCACUCCUGGGGUUUCGUUUCUAUGUGAGAGACGGGGACCCGGUUCUGUUGUGUGCAGCUUUAGCGGCA: 0.631
GUCCACAAAACUGAUGUUCUUUUGGGGUUUUAUGUACAGACUUGUCCAAUCAUGUGUGUGGUUCCUGCGAGUUGCUGAUGACUCCGCAUUGAAGCUCUCUGAGUUCUUUG: 0.624
UCCCAGCACUUGGGAGGCAGAGGCAGGUGAAUUUCUAAGUUCAAGGCCAGCUUGGUCUAUAGAGUGAGUUCCAGGACAGCCAGGACUACACAGAGAAACCCUGUCUCAAA: 0.323
UCAGAUUUUAACAGCUGUUACUGUUAUUGGAGAUCGGAGAGUUGGCCUGUUAGAAAUUAAAAAAUACAGUACAGCUUGCCGUUCCUCUGGUUUGUGAAGUUUCACUCGUU: 0.342
ACAUGAUGACUGGAAGUCAUGUCUUCUAAUUGGUUGACAUUUUGCAAACAAAUAAAUUGUAAUCAAAAGAGCUCUAAAUUUGUAAUUUCUUUCUCCUUUCAAAAAAUGUC: 0.78
UUACCUUCUGCUUUCUCUUUGUCCACUUACGCAGUAGGUGACUGGCAUGUGCCACAGAGCAGGCCCUGCCUCACUGUCUGCUGGUCAGUUCUGGGUUCACUUAAUGGCUU: 0.784
AGGGGCUCUCUAAGCUGCACUGUUGUGGCUUUGUCUAAAAUUUUAAUGACGUUUCUGAGAACCAUGUUCUUUUUAUACUAAAAUCUGGGGAUGGGAGGGCUCAUUUGUUG: 0.648
GGAGUUUCAUGUUUCUAAAGCUUUAAAAAGUAUCAAAAUCAUUCUUUGGAAAUAAUGACAUAAUAAGAAUUAGACUAUUUCUCAACUUUCUUAAGCGACUACAUCAUAUU: 0.518

Sample 2 — method: protein binding microarray; molecule type: double-stranded DNA, one strand shown; sample: in vitro; concentration: not given; baseline: not given; reading: higher = stronger binding; endpoint: E-score
Target: Histone acetyltransferase KAT6A, winged helix 2, GST fusion (KAT6A, Homo sapiens, UniProt Q92794, residues 85-181)
Setting: 8-mer, flanks averaged, mean of 2 arrays, mostly near background
Residues (chain): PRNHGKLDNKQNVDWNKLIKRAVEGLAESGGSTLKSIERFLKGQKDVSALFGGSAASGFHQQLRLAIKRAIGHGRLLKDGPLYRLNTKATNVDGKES
GCGCCTCA: -0.0233
CCGCTTGC: 0.109
CCTCCCTC: 0.152
CGCTACGC: 0.116
CATATCTC: -0.05
AACGATTC: 0.0455
AATAAACG: 0.00329
TAGGTACA: -0.0843
CCATGTTC: -0.0498
ATATACAG: -0.0139
CAGGGGCC: 0.0918
ACACGCCT: -0.0369
AATGTTGA: -0.12
ACGGGTAG: -0.00286
ATCTCCTC: -0.00488
AAGTACCT: -0.135
GATCAACC: -0.154
AAGACTAA: -0.13
AACACGCG: 0.075
CAAGAGCA: 0.102
CACCCGCC: 0.195
GGTCACTA: 0.0742
ACACACCC: 0.0184
AGTGCCAC: -0.0285
CGGGGCGA: 0.179

Sample 3 — method: universal PBM; molecule type: double-stranded DNA, one strand shown; sample: in vitro; concentration: not given; reading: higher = stronger binding; endpoint: E-score
Target: Sal-like protein 4, full length isoform B (SALL4, Homo sapiens, UniProt Q9UJQ4-2, residues 1-616)
Setting: 8-mer, flanks averaged, mean of replicates
Construct (chain): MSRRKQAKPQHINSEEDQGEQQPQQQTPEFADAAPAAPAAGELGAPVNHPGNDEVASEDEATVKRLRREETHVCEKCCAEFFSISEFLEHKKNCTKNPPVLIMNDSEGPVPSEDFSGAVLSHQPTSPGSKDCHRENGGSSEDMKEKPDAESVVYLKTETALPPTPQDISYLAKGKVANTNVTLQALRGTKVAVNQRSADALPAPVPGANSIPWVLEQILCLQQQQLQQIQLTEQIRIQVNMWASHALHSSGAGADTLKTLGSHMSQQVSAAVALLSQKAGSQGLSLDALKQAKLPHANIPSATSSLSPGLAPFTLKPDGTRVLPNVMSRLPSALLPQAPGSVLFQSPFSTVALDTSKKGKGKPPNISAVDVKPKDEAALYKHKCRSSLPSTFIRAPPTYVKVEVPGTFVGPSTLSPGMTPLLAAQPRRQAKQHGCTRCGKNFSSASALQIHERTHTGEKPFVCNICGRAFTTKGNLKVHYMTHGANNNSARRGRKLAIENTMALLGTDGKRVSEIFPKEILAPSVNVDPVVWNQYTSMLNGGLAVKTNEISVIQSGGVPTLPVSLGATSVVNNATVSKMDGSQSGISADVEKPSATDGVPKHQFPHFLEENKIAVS
CAGGTCCA: -0.131
CAGACCTC: -0.171
AACAGACT: 0.0881
AGCGGCAT: -0.125
ACTCTCCA: 0.0103
ATAATTCG: 0.285
TAACTAGA: 0.275
CCATACGG: -0.149
CATTTTGA: 0.199
GTCAAACA: 0.0404
AGATGTTA: 0.138
AGTGGCTG: -0.227
CTAAAGCA: 0.0299
AGGGCTTG: -0.139
ATAATTAG: 0.361
CCGTGAAG: -0.0877
CGAGTCGA: -0.121
GTCTGGTA: -0.127
AACATGCC: -0.0839

Sample 4 — method: RNA Bind-n-Seq; molecule type: RNA; sample: in vitro; concentration: not given; setting: RNA with constant flanks, ends assumed; baseline: input RNA pool; reading: higher = stronger binding; endpoint: bound/input enrichment
Target: RING finger protein unkempt homolog, zinc fingers 1-6, GST-SBP tag (UNK, Homo sapiens, UniProt Q9C0B0, residues 30-357)
UniProt Q9C0B0, sequence (30-357, looked up): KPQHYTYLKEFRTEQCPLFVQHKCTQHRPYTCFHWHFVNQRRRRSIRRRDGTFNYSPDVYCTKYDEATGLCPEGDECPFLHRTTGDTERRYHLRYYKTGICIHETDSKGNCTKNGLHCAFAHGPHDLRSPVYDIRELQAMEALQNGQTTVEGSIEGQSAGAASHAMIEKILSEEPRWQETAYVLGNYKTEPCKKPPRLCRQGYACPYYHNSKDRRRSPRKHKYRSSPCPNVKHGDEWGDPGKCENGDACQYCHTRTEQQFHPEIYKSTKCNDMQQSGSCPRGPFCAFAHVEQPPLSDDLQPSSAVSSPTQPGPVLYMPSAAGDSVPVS
All sequences stand within: GGGAGUUCUACAGUCCGACGAUC … CAACAGAGGAUUGAGCAUCA
CACAAUUGCUCUUACAAUUACAAAGCCGAUGCUGCUGAGAAAAUCAGAAAAGAAAAUCCAGCCGUUGUUGGUGAAAAGAUCCAAAAGAUUUGAACUCCUGCUGGAAUACAAAAUUCUUGA: 0.192 ratio
CUUCUCAUGACCAACUGUAUCAAGAAUGAUCUUAAUCAUAGCACGCAAUUCGUACAGGGGUCCGCACUUUGUACCCUCGGCUGCAUGGGCUCCUCAGAGAUGUGCAGAGAUCUUGCAGGA: 0.124 ratio
AACAGCUCUCUCCUUCCUCGUUACUGCAAAUUGAUUGUUUCCCUUUCCUGGUACCAUAAUCUCCGAGGCAAACUUUGAGACAGGUGUUUUGAGGCUCUUCCUGUACUCUUAGGAUAUAUG: 1.25 ratio
GAUGGCAAUGGCCAGGAGGCCUAUGCCUCAAGCUGUAACAGUGGCACGUCCUACAAUUCCAUCCGCUCAGUGGUGUCCCGGUGAGGGCAGCCUUGGCUUGGGUAGGGUCUUUAUGGACUG: 0.0763 ratio
GGUGGGGAGGGCAAUGUGGGGGCAGGGGAACAUGUCAUUGUGAUGACUUUUUUGAUAUUCAUCCGAAACAAUACAUCCUUUCUGAGAUAUUUACAGUAUUAUUAAAAAAUGAAAAAGGUU: 0.793 ratio
CUGGACCUCAACUGUGACGGGCAGCUAGAUUUCCAAGAGUUUCUCAACCUCAUUGGUGGCUCCGCUACCGCGUGCCAUGAUUCUUUCAUCCAAACUUCCCAGAAGCGAAUCUAAUCCUCU: 0.334 ratio
UGACUGUUAUGAUUAUCAGAAUGUCUUAACUUUUUAGGGCAAAGUUAACACUGAAAGUUCCCGCUUAAGUGUUGAAACUUUUGUGGGAAAAAAAAAUCACUUUUGAAACUCAGACUUCAG: 0.185 ratio
CCUCCUACCAAGGGUCUCCGCAAGGAGGAACGGCCAGGCCCUGGGCCCGGCGAGGUGCGUACCGCUUUCCGAAUCUCCAAUGUCCGAGAGCCCCAUUCACCAGAUGGCAACUUACCCAAU: 0.128 ratio

Excerpt of the above (sample 4):
CACAAUUGCUCUUACAAUUACAAAGCCGAUGCUGCUGAGAAAAUCAGAAAAGAAAAUCCAGCCGUUGUUGGUGAAAAGAUCCAAAAGAUUUGAACUCCUGCUGGAAUACAAAAUUCUUGA: 0.192 ratio
CUUCUCAUGACCAACUGUAUCAAGAAUGAUCUUAAUCAUAGCACGCAAUUCGUACAGGGGUCCGCACUUUGUACCCUCGGCUGCAUGGGCUCCUCAGAGAUGUGCAGAGAUCUUGCAGGA: 0.124 ratio
AACAGCUCUCUCCUUCCUCGUUACUGCAAAUUGAUUGUUUCCCUUUCCUGGUACCAUAAUCUCCGAGGCAAACUUUGAGACAGGUGUUUUGAGGCUCUUCCUGUACUCUUAGGAUAUAUG: 1.25 ratio
GAUGGCAAUGGCCAGGAGGCCUAUGCCUCAAGCUGUAACAGUGGCACGUCCUACAAUUCCAUCCGCUCAGUGGUGUCCCGGUGAGGGCAGCCUUGGCUUGGGUAGGGUCUUUAUGGACUG: 0.0763 ratio
GGUGGGGAGGGCAAUGUGGGGGCAGGGGAACAUGUCAUUGUGAUGACUUUUUUGAUAUUCAUCCGAAACAAUACAUCCUUUCUGAGAUAUUUACAGUAUUAUUAAAAAAUGAAAAAGGUU: 0.793 ratio
CUGGACCUCAACUGUGACGGGCAGCUAGAUUUCCAAGAGUUUCUCAACCUCAUUGGUGGCUCCGCUACCGCGUGCCAUGAUUCUUUCAUCCAAACUUCCCAGAAGCGAAUCUAAUCCUCU: 0.334 ratio
UGACUGUUAUGAUUAUCAGAAUGUCUUAACUUUUUAGGGCAAAGUUAACACUGAAAGUUCCCGCUUAAGUGUUGAAACUUUUGUGGGAAAAAAAAAUCACUUUUGAAACUCAGACUUCAG: 0.185 ratio
CCUCCUACCAAGGGUCUCCGCAAGGAGGAACGGCCAGGCCCUGGGCCCGGCGAGGUGCGUACCGCUUUCCGAAUCUCCAAUGUCCGAGAGCCCCAUUCACCAGAUGGCAACUUACCCAAU: 0.128 ratio
